Results collected from several papers.
Every numbered part comes from another study and shows a few of its results, in no order.

Series 1 — technique: protein-binding microarray; form: double-stranded DNA, one strand shown; matrix: in vitro; tested at: 250 nM; notes: 60-bp whole probe; added: salmon DNA 0.4 mg/ml; baseline: random background probes; reading: higher = stronger binding; measurement: log fluorescence; all sequences stand within: GCCTAGCAC … GTCTTGATTCGCTTGACGCTGCTG
Target: Interferon regulatory factor 7, full length, phosphomimetic (IRF7, Homo sapiens, UniProt Q92985, residues 1-503, S101K/S471D/S472D/S475D/S476D/S477D/S483D/S484D/S487D)
Target sequence (chain): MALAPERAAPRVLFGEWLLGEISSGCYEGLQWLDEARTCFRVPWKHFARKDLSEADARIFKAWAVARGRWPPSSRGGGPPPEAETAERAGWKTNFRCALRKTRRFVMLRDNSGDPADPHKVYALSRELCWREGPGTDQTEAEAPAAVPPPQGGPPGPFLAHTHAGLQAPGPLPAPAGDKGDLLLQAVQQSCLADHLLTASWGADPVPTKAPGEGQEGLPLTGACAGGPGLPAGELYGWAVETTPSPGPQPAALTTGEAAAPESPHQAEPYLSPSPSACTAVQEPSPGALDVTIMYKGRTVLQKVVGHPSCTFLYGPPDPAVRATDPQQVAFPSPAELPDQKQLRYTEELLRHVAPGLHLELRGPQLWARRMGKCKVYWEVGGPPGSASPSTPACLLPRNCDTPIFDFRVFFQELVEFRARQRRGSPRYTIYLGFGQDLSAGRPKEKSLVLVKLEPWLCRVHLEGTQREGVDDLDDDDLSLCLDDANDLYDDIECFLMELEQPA
TTTGGACTGGGGACTGGGTTAGTGCTA: -0.541 z-score
GAGGGACTGGACTTTCGGGACGTGCTA: -0.77 z-score
TCAACTCTGTGCTTTCCTACTGTGCTA: 0.0103 z-score
GACGGTCTCAGTTTCGGGACGTGCTAG: 3.54 z-score
GACGAACTGGGGACAGGAGACGTGCTA: -0.242 z-score
AACGATATCAGTCTCGAGACGTGCTAG: 0.723 z-score
TTAGAACTCGGGACTGGATTAGTGCTA: -0.432 z-score
TTAGGTATCATACTGCTTTAGTGCTAG: 0.236 z-score
TTAGATTTAAGTTCCGATTAGTGCTAG: 1.3 z-score
TTAGGATTGGGTATCGGTTAGTGCTAG: 0.884 z-score
TTAGATATCGGGACCGGATTAGTGCTA: 0.608 z-score
GACGGACTGGGGTTCGGGACGTGCTAG: -0.388 z-score
GACGGACTGCTTTTCCTTACGTGCTAG: 0.0902 z-score
GACGATTTCGGGCCTGGAGACGTGCTA: -0.0825 z-score

Series 2 — technique: RNA Bind-n-Seq; form: RNA; matrix: in vitro; tested at: 365 nM; baseline: no-protein control; reading: higher = stronger binding; measurement: RBNS enrichment (R)
Target: RNA binding protein fox-1 homolog 2, RRM domain, GST-SBP tag (RBFOX2, Homo sapiens, UniProt O43251-10, residues 100-194)
Notes: natural RNA segment, single round, ends assumed
Construct (chain): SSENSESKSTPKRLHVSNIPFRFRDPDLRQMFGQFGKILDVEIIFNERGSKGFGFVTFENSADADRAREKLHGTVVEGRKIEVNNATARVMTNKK
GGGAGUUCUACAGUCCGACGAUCUCUAAACCUUAGAGGAAGCCAGAAUAUGUGAUCAUACCAGGUGAGGAAAGUUAGGAGAUAUUCAUCUUAAGAGAUAUCCUAUUUGGCAGUCACAUGUUACACUUGAGCAAUGGAAUUCUCGGGUGCCAA: 0.245
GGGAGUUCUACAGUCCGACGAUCGCGGAGGUCCCCAGUGGCUGAGCAAACAGCCCCUUCUCUCGCUUUGGGUCUUUUUUUUGUUUCUUUCUUAAAGCCACUUUAGUGAGAAGCAGGUACCAAGCCUCAGGGUGUGGAAUUCUCGGGUGCCAA: 0.237
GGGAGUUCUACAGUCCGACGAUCACUGUUGCCAGAGAUGGAGGUUCUCUCGGAGUAUCUGGGAACUGUGCCUUUGAGUUUCCUCAGGCUGCUGGAGGAAAACUGAGACUCAGACAGGAAAGGGAAGGCCCCACUGGAAUUCUCGGGUGCCAA: 0.611
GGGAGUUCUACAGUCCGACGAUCGAUACAUAGUGUAGAACAGGAAUUUGCAGAAGCCAUUUAAGUUAUCUUUUGAGGUAAGCUCUGAUUUAGCAUUUAUUCUGAUAAAAUCUAAUACAUCAUGGGAUAUAUAUUGGAAUUCUCGGGUGCCAA: 0.742
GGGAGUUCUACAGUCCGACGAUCUGUAAAUGCAUGAGUUUGGAAACCACCCAUCAAAUAUGAAAGGCUGAUGAGACUGUUAGGAUUGAUAAACAUUUGUUGUUUGAACCCAGCUAUCCAAACUGGGGAAGAAGUGGAAUUCUCGGGUGCCAA: 8.46
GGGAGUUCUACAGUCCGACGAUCUGCUUGUAAUAGGUAGGCAAUUCCUUGAUUACAGGAAGCUUUUAUAUUACUUGAGUAUUUCUGUCUUUUCACAGAAAAACAUUGGGUUUCUCUCUGGGUUUGGACAUGAAUGGAAUUCUCGGGUGCCAA: 0.405
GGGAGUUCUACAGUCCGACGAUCUAGUCACCUGUCACCAGGGAUUCUACUACAGUCUGCGCGCCACAGAUAGUUGCUCACACACCAUUGAGCAAACGUGUCUUGUUCCUUGUAUCUCUUUUCUUCCAGCCCUGUGGAAUUCUCGGGUGCCAA: 0.317
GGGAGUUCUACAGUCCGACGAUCUUUAUCUCUUCUAAACUGUGUUUAUAUUGCUCUGGGUCCAACAACACUAAAUCAUAGUUUAACACAGGAAUCAAAAUGGAAGCCACGGGGAGCAUAGCAUGUGGGUUUCUUGGAAUUCUCGGGUGCCAA: 2.55
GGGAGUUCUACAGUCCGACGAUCCCUCCUUUCAAGCUAGCCAAGUUUUCUGCGAGCCUUCAGAGCUAGGAGGGCACCCUAGGCUCUGGGAUCCCGUGUCUUUCCAGACAAUGUUUUGUUUCCUUUCCUUUGUUUGGAAUUCUCGGGUGCCAA: 0.467
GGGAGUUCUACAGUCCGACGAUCCACAGUGGAGAGGCCGGAAGUGAGACGGGCAGACGGCACCUGCAGCCUGAAACGCACCGCUCCUGCGUGCGCCCCCACCUGGUCCCCGGAUGCCCCCACCACCUGGACAGUGGAAUUCUCGGGUGCCAA: 0.452
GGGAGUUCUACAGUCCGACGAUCGUGCCACUGGCCUGACCCUCGAGACAGCUCAAGGAUCCGUGGUGUGGCCACCUGCCAGACCCCCAAGGAGAGAGGCCAAGAGUGGCCCUGGCACAGUGUGUCUGCUAGCUUGGAAUUCUCGGGUGCCAA: 0.356
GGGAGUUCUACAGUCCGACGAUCACUGUACUCUAGCCUGGGUAACAGCCAGACCCUGUCUCAAAAAAAAAAACAAUUUUUUUCAUAACAUAAUUCCCAUUUUUAUUUAUUUUGAGUCACUCAUAAUUAAUUGCUGGAAUUCUCGGGUGCCAA: 0.693

Series 3 — technique: competition protein-binding microarray; form: double-stranded DNA, one strand shown; matrix: in vitro; tested at: 2 µM; added: Pho4 competitor, 0.05 µM; reading: higher = stronger binding; measurement: fluorescence intensity
Target: Centromere-binding protein 1, full length, His-tagged (CBF1, Saccharomyces cerevisiae, UniProt P17106, residues 1-351)
Chain of UniProt P17106 (whole entry, looked up): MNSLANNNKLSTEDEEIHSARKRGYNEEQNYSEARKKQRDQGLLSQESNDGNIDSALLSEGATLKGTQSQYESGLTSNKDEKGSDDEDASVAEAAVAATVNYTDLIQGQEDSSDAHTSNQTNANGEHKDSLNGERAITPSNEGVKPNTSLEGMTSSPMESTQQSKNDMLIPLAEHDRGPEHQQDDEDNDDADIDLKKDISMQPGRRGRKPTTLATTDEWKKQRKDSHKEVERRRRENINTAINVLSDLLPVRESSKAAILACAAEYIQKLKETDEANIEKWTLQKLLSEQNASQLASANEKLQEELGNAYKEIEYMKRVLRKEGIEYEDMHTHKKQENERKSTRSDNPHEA
Notes: whole 60-bp probe, lowest competitor level
AAAGCGGTAATTTGATTAGTGGGTGCAGATATCTATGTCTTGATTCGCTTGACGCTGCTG: 76.9 a.u.
GCAACACTAGAGTCCCACGTGGAAGCTGGGGTACCCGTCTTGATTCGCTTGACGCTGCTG: 341 a.u.
TAGGTTTTATCCTGGCACGCTGTCTAGCTTTCAAACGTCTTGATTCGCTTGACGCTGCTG: 78 a.u.
CGGGGTTAAGTTTGTCACCGTACTTGCTTGCAGCAGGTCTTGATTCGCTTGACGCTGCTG: 63.9 a.u.
AAATTACTAAGTTGGTGGGTGGGTGACGCCGTATGAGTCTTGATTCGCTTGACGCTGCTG: 70.7 a.u.
AGTATGTTGGTCTTGGTCGTGCTGTAGGTTTTGAGTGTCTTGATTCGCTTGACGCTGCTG: 75.1 a.u.
GCGGGCATCGCGTTCGTCGTGACGAATGACTTGAAAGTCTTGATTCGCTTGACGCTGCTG: 80.9 a.u.
AAGAAACATACCCATCACGTGACGGCAAGAATGTTAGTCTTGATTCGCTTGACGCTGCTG: 12400 a.u.

Further values, each from its own experiment
PhoQ, residues 284 288 289 292 302 303 AGGLSV — fold induction (PhoP, residues 12 14 15 18 19 VGHWL (Escherichia coli, UniProt P23836); Sort-seq, item: YFP reporter; E. coli; PhoQ-PhoP variant library, added: 10 µM Mg2+; baseline: high Mg2+ state, higher = stronger signaling): 6.25

Some of these lines once more (series 1):
GACGGACTGCTTTTCCTTACGTGCTAG: 0.0902 z-score
GACGATTTCGGGCCTGGAGACGTGCTA: -0.0825 z-score
TTAGGATTGGGTATCGGTTAGTGCTAG: 0.884 z-score
